{"data": "Published values from different studies", "note": "Numbered parts are unrelated; each lists some results of a single study."}
{"data": "Study 1", "target": "Hepatocyte nuclear factor 3-alpha (Foxa1, Mus musculus, UniProt P35582, residues 1-468, full length assumed)", "technique": "EMSA with sequencing", "form": "double-stranded DNA, one strand shown", "sample": "in vitro", "concentration": "10 and 20 nM", "setting": "whole designed probe, mean of two concentrations, ends assumed", "reference": "negative control set to 0", "reading": "higher = stronger binding", "Construct (chain)": "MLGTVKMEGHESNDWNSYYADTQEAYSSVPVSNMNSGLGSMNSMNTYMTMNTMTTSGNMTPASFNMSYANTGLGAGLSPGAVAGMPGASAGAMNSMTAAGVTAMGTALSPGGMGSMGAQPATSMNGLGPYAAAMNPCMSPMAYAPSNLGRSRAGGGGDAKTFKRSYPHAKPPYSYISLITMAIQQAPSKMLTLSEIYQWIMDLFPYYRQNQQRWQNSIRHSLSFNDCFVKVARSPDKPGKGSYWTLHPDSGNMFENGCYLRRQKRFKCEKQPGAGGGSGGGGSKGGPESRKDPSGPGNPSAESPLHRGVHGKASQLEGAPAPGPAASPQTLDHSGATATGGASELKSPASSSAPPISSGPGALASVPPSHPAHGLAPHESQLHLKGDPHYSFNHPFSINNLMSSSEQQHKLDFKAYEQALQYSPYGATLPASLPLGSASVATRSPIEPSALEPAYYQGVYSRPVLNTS"}
{"Sequence": "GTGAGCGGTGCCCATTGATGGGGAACGGTATAACTAAACAATCTAACAAACAAAAAGATACTAAAGATACCGTCTATAATTGGACCCAGGTCAGTGGTGCCTCCAGGCACCTGGCCAAAGTCATCTCAGGGGGTTTGGAAGCGGAAGATAATATCAACAATGGCTAACACATTCAACGCACAAAACAGAATCCTGTTAGAACAGGTGAGAAGTAGGGCTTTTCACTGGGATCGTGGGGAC", "normalised bound fraction [ratio]": 0.195}
{"Sequence": "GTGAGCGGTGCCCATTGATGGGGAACCCAGTGAATATATATATATATTTTCAAATTTGATTTTCCAAATGTCCCGGGAGCACATGCCCTGTTTCCTAATGAATCTCCGGGGTTCTTCAGAGTAATCTACAAAACATAGCATTCCTGCTTTGGGACTCCAGCCCTCCACCCTGGGGAGCACGTGTCTCCTTGACCATGGTCATCTCCTACTAGACCGGAGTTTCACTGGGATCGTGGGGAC", "normalised bound fraction [ratio]": -0.0324}
{"Sequence": "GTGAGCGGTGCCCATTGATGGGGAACAGGTTAAAGATTACATTCTAACCACACACCAGTCATACTCTGCTCCGGGAAAAACCTTAAGTACTTGTGACCTTCTGTCCCTAACTTAGATGTAGATTACTTTCAGTTTACATACAGTGCAATCTCCAGGGTGTACATGATTTTCAAGTCAAAAAAGATAAGGACTAATCCAGAAAGGAGAAGGAATTCTGTTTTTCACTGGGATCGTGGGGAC", "normalised bound fraction [ratio]": -0.00581}
{"Sequence": "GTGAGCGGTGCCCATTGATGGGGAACAAAACCTTCCTATCCCATGGTTATAAAGGAATCACTCATATTTTCTAAATGTGCTTTTTATATTTGTTTTAAACATTTAAAATCTTTGATCCATGTGGACTTTTTCTTGGTATGTAAAGTAAGGTACTAATTTATCAAGTGGCTGTCAGTCGTCCTAACACCTTTTATCAAAAAGTCCCCCTTTATGGTTAGGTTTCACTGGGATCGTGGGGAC", "normalised bound fraction [ratio]": 0.257}
{"Sequence": "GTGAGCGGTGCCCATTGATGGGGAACATCCACGAACCTGGCCCTGTCTGGTAACCACAGTGAACCATCGCAAGATACAGCACTATGTGCCCAGTTGGGCTTAATGACTCACGGAACCAGTGTTGACACATCACATCCTCAGGGACACGGAAGTGTACTTGTTTTTGGAGAGGGACTAGACCTTCATCCTTGAGGTGAAGAAGATTTTCTCTCCAGGGTGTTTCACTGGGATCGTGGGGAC", "normalised bound fraction [ratio]": 0.105}
{"data": "Study 2", "target": "TAR DNA-binding protein 43, full length, His tag (TARDBP, Homo sapiens, UniProt Q13148, residues 1-414)", "technique": "RNA Bind-n-Seq", "form": "RNA", "sample": "in vitro", "concentration": "20 nM", "setting": "6-mer, flanks averaged, single round", "together with": "150 mM KCl", "reference": "input library", "reading": "higher = stronger binding"}
{"Sequence": "CCCAAG", "6-mer enrichment (R)": 0.739}
{"Sequence": "UAGAAG", "6-mer enrichment (R)": 0.947}
{"Sequence": "AAGAUU", "6-mer enrichment (R)": 0.566}
{"Sequence": "GCGGGU", "6-mer enrichment (R)": 4.25}
{"Sequence": "AGGGUG", "6-mer enrichment (R)": 4.11}
{"Sequence": "CCGCUG", "6-mer enrichment (R)": 0.809}
{"Sequence": "UUGUAG", "6-mer enrichment (R)": 0.834}
{"Sequence": "AGGGGA", "6-mer enrichment (R)": 4.15}
{"Sequence": "UUAAUA", "6-mer enrichment (R)": 0.64}
{"Sequence": "GGGUCG", "6-mer enrichment (R)": 3.72}
{"Sequence": "CCAGUU", "6-mer enrichment (R)": 0.633}
{"Sequence": "AGUAAG", "6-mer enrichment (R)": 0.924}
{"Sequence": "GCUCCA", "6-mer enrichment (R)": 0.673}
{"Sequence": "CCAUGG", "6-mer enrichment (R)": 1}
{"Sequence": "CAUGAG", "6-mer enrichment (R)": 1}
{"data": "Study 3", "target": "RING finger protein unkempt homolog, zinc fingers 1-6, GST-SBP tag (UNK, Homo sapiens, UniProt Q9C0B0, residues 30-357)", "technique": "RNA Bind-n-Seq", "form": "RNA", "sample": "in vitro", "concentration": "not given", "setting": "RNA with constant flanks, human and mouse sites, ends assumed", "reference": "input RNA pool", "reading": "higher = stronger binding", "Construct (chain)": "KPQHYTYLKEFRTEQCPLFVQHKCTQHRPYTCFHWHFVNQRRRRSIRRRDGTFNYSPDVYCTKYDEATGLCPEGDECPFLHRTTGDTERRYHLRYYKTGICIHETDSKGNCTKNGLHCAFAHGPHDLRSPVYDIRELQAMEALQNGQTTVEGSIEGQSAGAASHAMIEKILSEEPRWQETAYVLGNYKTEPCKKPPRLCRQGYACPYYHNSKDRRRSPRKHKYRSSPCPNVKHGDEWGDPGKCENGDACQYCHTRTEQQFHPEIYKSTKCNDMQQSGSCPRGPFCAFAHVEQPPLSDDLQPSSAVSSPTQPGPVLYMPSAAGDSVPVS"}
{"Sequence": "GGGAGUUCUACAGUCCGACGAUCUUCGUUGCCUGUAAGCCCACUUGCUUCUCACUUCAUCAGACAAGCUCAAUACACACAAGAUAGUAAUUUAAUGGGAGCUGUUAGGCUGGUCCACACGUGAAGAGAAACAAUUUCUAGCCUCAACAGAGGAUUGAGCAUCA", "bound/input enrichment": "1.22 ratio"}
{"Sequence": "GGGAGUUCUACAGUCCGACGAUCCAGCAGUCAUCUCUCAGUAGGGACUCACAGGGUCAUGGGCGUGACCUGUCUGCGGCAGGAAUAGGCCUUCUUGCUGCUGCUACCCAGUCUUUAAGUAUGCCAGCAUCUCUUGGAAGGAUGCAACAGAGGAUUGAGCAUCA", "bound/input enrichment": "0.0646 ratio"}
{"Sequence": "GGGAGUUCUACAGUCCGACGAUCGGAUUUUCUCAGUCCUUCACUCAAGAACAAGUAGCUGAUAUUGAUGGACAGUAUGCAAUGACUCGAGCUCAGAGGGUACGAGCUGCUAUGUUCCCUGAGACAUUAGAUGAGGGCAUGCAGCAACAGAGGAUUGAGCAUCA", "bound/input enrichment": "0.277 ratio"}
{"Sequence": "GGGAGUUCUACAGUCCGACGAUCGAAUACUUAUGAGAAUCAGCAUAAAGAAAUGAAUGAAAUCAGUGGUAAACAGGUGUUAAUUGUGUCAGUUUUGAAUCUUUCUAACAAACUGGAGAUCUCCCUUUUAUGUAUGUGUAGCUUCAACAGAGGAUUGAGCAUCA", "bound/input enrichment": "0.335 ratio"}
{"Sequence": "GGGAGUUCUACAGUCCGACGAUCAUGGAGAUGUAUCAACCUAGUGCUGUGGUAUUACAGUGUGGUGCAGACUCAUUAUCUGGUGAUAGACUGGGUUGUUUCAAUCUAACAGUCAAAGGUCAUGCUAAAUGUGUAGAAGUUGUACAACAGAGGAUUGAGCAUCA", "bound/input enrichment": "0.306 ratio"}
{"Sequence": "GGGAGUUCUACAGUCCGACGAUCACCCGAUUCUGUCUUAUCUGUAACUAUGUCAGUCGAAUAAUUGAACCCCUGACCUCUAGAUGUUCAAAAUUCCGCUUCAAGCCUCUGUCAGAUAAAAUUCAACAGCAGCGAUUACUAGACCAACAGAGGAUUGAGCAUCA", "bound/input enrichment": "5.04 ratio"}
{"Sequence": "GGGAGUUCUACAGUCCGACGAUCAAAUUCAAAGGCCCCUUCACAGAUGUAGUCACUACAAAUCUUAAAUUGCGAAAUCCAUCGGAUAGAAAAGUGUGUUUCAAAGUGAAGACUACAGCACCUCGCCGGUACUGUGUGAGGCCCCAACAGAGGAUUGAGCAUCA", "bound/input enrichment": "0.282 ratio"}
{"Sequence": "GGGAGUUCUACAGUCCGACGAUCCUCACAGGUAGAAUGAAUUGUGUCCUGGCCACAUAUGGAGGCAUUGCUUUGCUGGUCUUAUACUUCAAGUUAAGGCCUAAGAAAACUCCAGCUGUGAAAGCAACAUAAAUGGAUUUUGAACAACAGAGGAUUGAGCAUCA", "bound/input enrichment": "0.172 ratio"}
{"data": "Study 4", "target": "Histone acetyltransferase KAT6A, both winged helices, GST fusion (KAT6A, Homo sapiens, UniProt Q92794, residues 1-181)", "technique": "protein binding microarray", "form": "double-stranded DNA, one strand shown", "sample": "in vitro", "concentration": "not given", "setting": "8-mer, flanks averaged, mean of 2 arrays, mostly near background", "reference": "not given", "reading": "higher = stronger binding", "Construct (chain)": "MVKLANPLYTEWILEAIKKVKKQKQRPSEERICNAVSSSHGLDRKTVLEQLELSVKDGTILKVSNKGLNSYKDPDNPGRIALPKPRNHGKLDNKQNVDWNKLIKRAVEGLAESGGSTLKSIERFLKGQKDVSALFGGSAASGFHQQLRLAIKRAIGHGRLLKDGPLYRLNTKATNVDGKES"}
{"Sequence": "CCCCGACG", "E-score": 0.258}
{"Sequence": "ATAGTCCA", "E-score": -0.182}
{"Sequence": "AACACCAG", "E-score": -0.18}
{"Sequence": "AAGGGGAC", "E-score": -0.172}
{"Sequence": "AGTATTTA", "E-score": -0.147}
{"Sequence": "AGACCTAA", "E-score": -0.138}
{"Sequence": "CAATACCG", "E-score": 0.17}
{"Sequence": "TACTGCTA", "E-score": -0.168}
{"Sequence": "AACAATAG", "E-score": -0.131}
{"Sequence": "ATATATTA", "E-score": 0.0416}
{"Sequence": "ACACACTG", "E-score": 0.0186}
{"Sequence": "CGATAAAG", "E-score": 0.0434}
{"Sequence": "TGTATACA", "E-score": -0.0023}
{"Sequence": "GTACCTGA", "E-score": -0.0134}
{"Sequence": "GGTAGGCA", "E-score": -0.0512}
{"Sequence": "ACCCTGCA", "E-score": -0.137}
{"Sequence": "ATATATGC", "E-score": 0.00625}
{"Sequence": "GAAAACCA", "E-score": 0.0141}
{"data": "Study 5", "target": "Interferon regulatory factor 7, full length, phosphomimetic (IRF7, Homo sapiens, UniProt Q92985, residues 1-503, S101K/S471D/S472D/S475D/S476D/S477D/S483D/S484D/S487D)", "technique": "protein-binding microarray", "form": "double-stranded DNA, one strand shown", "sample": "in vitro", "concentration": "250 nM", "setting": "60-bp whole probe", "together with": "salmon DNA 0.4 mg/ml", "reference": "random background probes", "reading": "higher = stronger binding", "shared flanks, not repeated": "GCCTAGCAC … GTCTTGATTCGCTTGACGCTGCTG", "sequence of UniProt Q92985 (whole entry, unmodified, looked up)": "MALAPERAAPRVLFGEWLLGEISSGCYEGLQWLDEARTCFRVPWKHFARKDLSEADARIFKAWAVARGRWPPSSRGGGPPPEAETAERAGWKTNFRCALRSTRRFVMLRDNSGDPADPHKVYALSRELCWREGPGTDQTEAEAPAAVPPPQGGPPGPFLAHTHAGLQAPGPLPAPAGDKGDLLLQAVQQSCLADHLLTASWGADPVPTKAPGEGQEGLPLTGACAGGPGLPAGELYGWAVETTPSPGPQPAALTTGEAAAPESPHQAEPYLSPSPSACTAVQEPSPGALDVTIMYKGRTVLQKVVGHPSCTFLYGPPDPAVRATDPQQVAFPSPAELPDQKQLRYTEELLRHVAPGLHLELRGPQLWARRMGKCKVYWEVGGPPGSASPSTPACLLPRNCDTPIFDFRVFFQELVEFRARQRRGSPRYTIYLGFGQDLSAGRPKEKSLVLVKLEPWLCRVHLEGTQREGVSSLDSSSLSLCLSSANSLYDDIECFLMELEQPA"}
{"Sequence": "TTAGGTATCCTTCTCCTGTAGTGCTAG", "log fluorescence": "0.415 z-score"}
{"Sequence": "GACGGTATCGGTTGCGGGACGTGCTAG", "log fluorescence": "0.635 z-score"}
{"Sequence": "TTGGGACTGCTTCTCCTTTAGTGCTAG", "log fluorescence": "0.0266 z-score"}
{"Sequence": "GAAGATATCAGTATCGAGACGTGCTAG", "log fluorescence": "-0.144 z-score"}
{"Sequence": "AACGGACTGCTTATCCTGACGTGCTAG", "log fluorescence": "-0.173 z-score"}
{"Sequence": "TCATGTGTACATCTCTCACTGTGCTAG", "log fluorescence": "-0.0563 z-score"}
{"Sequence": "ATTCCTTTGCCTCCAGGCGCGTGCTAG", "log fluorescence": "1.08 z-score"}
{"Sequence": "GAAAATTTCTTCCTCCCCCTGTGCTAG", "log fluorescence": "0.35 z-score"}
{"Sequence": "TCCTTTTAATTTTTAACGAGGTGCTAG", "log fluorescence": "1.58 z-score"}
{"Sequence": "GACGGTCTCGGTTTCGTGACGTGCTAG", "log fluorescence": "6.76 z-score"}
{"Sequence": "GACGGTCTCCGTATCGGGACGTGCTAG", "log fluorescence": "-0.223 z-score"}
{"Sequence": "TCACTTCTGGGCTGTTTAACTGTGCTA", "log fluorescence": "0.0601 z-score"}
{"Sequence": "GACGGACTGGACTTTCGGGAGGTGCTA", "log fluorescence": "-0.691 z-score"}
{"Sequence": "TTCGGTCTCGGTCTCGGTTAGTGCTAG", "log fluorescence": "2.49 z-score"}
{"Sequence": "TTAGCTTTCGGTTCCGGTTAGTGCTAG", "log fluorescence": "3.69 z-score"}
{"Sequence": "TCTCTTTTCACTTTCTTTACGTGCTAG", "log fluorescence": "3 z-score"}
{"Sequence": "TACGATTTCAGTATCGAGACGTGCTAG", "log fluorescence": "0.473 z-score"}
{"Sequence": "GACGAATTGGGGTTTCGAGACGTGCTA", "log fluorescence": "2.19 z-score"}
{"Sequence": "CTTTTATTAGTGACTCAGCACGTGCTA", "log fluorescence": "1.98 z-score"}
